Assay results of several laboratories.
Lines come from different studies, so protocols differ.

Structure (SMILES)	assay	test system	conditions	how to read	retention time
CC(=O)N[C@@H](Cc1c[nH]c2ccccc12)C(=O)N[C@@H](CCCCN)C(=O)N[C@@H](Cc1ccccc1)C(=O)N[C@@H](CCC(=O)O)C(=O)N[C@@H](Cc1c[nH]c2ccccc12)C(=O)N[C@@H](CCCCN)C(=O)N[C@@H](Cc1ccccc1)C(=O)N[C@@H](CCC(=O)O)C(N)=O	reverse-phase HPLC C18	–	–	–	12.7 min
CCCCCCCCCCCCCCCC(=O)N[C@H](C(=O)N[C@H](C(=O)N[C@H](C(=O)N[C@@H](C)C(=O)N[C@@H](C)C(=O)N[C@@H](C)C(=O)N[C@@H](CCCCN)C(=O)N[C@@H](CCCCN)C(=O)N[C@@H](CCCCN)C(N)=O)C(C)C)C(C)C)C(C)C	RP-HPLC C18	–	–	–	19.1 min
CC(C)C[C@@H]1NC(=O)[C@H](CCCCN)NC(=O)[C@H](C(C)C)NC(=O)[C@@H]2CCCN2C(=O)[C@@H](Cc2ccc(O)cc2)NC(=O)[C@H](CC(C)C)NC(=O)[C@H](CCCCN)NC(=O)[C@H](C(C)C)NC(=O)[C@H](CCCCN)NC(=O)[C@H](CC(C)C)NC(=O)[C@H](CCCCN)NC(=O)[C@@H]2CCCN2C(=O)[C@@H](Cc2ccc(O)cc2)NC(=O)[C@H](C(C)C)NC(=O)[C@H](CCCCN)NC1=O	RP-HPLC C8	–	70 °C, water/acetonitrile TFA gradient	–	25.9 min
CC(=O)N[C@H](CCCCN)C(=O)N[C@H](CC(C)C)C(=O)N[C@H](CCCCN)C(=O)N[C@H](CO)C(=O)N[C@H](CC(C)C)C(=O)N[C@H](CC(C)C)C(=O)N[C@H](CCCCN)C(=O)N[C@@H](C(=O)N[C@H](CC(C)C)C(=O)N[C@H](CO)C(=O)N[C@H](CCCCN)C(=O)N[C@H](C)C(=O)N[C@H](CCCCN)C(=O)N[C@H](CCCCN)C(=O)N[C@H](CCCCN)C(=O)N[C@H](CCCCN)C(=O)N[C@H](CC(C)C)C(=O)N[C@H](CCCCN)C(=O)N[C@@H](C(=O)N[C@H](CC(C)C)C(=O)N[C@H](CC(C)C)C(=O)N[C@H](CCCCN)C(=O)N[C@H](C)C(=O)N[C@H](CC(C)C)C(=O)N[C@H](CO)C(=O)N[C@H](CCCCN)C(N)=O)[C@H](C)O)[C@H](C)O	RP-HPLC C8	–	pH 2, hydrophobicity measure	–	83.6 min
CC(C)C[C@@H]1NC(=O)[C@H](CCCCN)NC(=O)[C@H](C(C)C)NC(=O)[C@@H]2CCCN2C(=O)[C@@H](Cc2ccc(O)cc2)NC(=O)[C@H](CC(C)C)NC(=O)[C@H](CCCCN)NC(=O)[C@H](C(C)C)NC(=O)[C@@H]2CCCN2C(=O)[C@@H](Cc2ccc(O)cc2)NC(=O)[C@H](CCCCN)NC1=O	RP-HPLC C8	–	70 °C, water/acetonitrile TFA gradient	–	24.4 min
CCCCCCCCCCCCCCCCCC(=O)N[C@@H](CCCCN)C(=O)N[C@@H](CCCCN)C(=O)N[C@@H](CCCCN)C(=O)N[C@@H](CCCCN)C(=O)N[C@@H](CCCCN)C(N)=O	RP-HPLC C18	–	–	–	15.8 min
Cc1c(C)c(C)[c-](C)c1C.Cc1ccnc(-c2[c-]cccc2)c1.[Cl-].[Ir+3]	RP-HPLC	C18 column, water/acetonitrile	with: 50 mM NaCl	longer = more hydrophobic	20.9 min
CC(C)C[C@@H]1NC(=O)[C@H](CC(C)C)NC(=O)[C@H](CC(C)C)NC(=O)[C@@H]2CSCC(=O)N[C@@H](CCCCN)C(=O)N[C@@H](CCCCN)C(=O)N[C@@H](CCCCN)C(=O)NCCCC[C@H](NC(=O)[C@H](CCCCN)NC(=O)[C@H](CCCCN)NC(=O)[C@H](CCCCN)NC(=O)CSC[C@@H](C(=O)N[C@@H](CCCCN)C(N)=O)NC1=O)C(=O)N[C@@H](CCCCN)C(=O)N[C@@H](CC(C)C)C(=O)N[C@@H](CC(C)C)C(=O)N2	analytical RP-HPLC	C18 column	10.00 min gradient, 0.05% TFA	–	2.86 min
CCCCCCCCCCCCCCCCCC(=O)N[C@H](C(=O)N[C@H](C(=O)N[C@H](C(=O)N[C@@H](CCCCN)C(=O)N[C@@H](CCCCN)C(=O)N[C@@H](CCCCN)C(=O)N[C@@H](CCCCN)C(=O)N[C@@H](CCCCN)C(N)=O)C(C)C)C(C)C)C(C)C	RP-HPLC C18	–	–	–	18.6 min
N=C(N)NCCC[C@H](NC(=O)[C@H](Cc1c[nH]c2ccccc12)NC(=O)[C@H](CCC(N)=O)NC(=O)[C@H](Cc1c[nH]c2ccccc12)NC(=O)[C@H](CCCNC(=N)N)NC(=O)[C@H](Cc1c[nH]c2ccccc12)NC(=O)[C@H](CCC(N)=O)NC(=O)[C@H](Cc1c[nH]c2ccccc12)NC(=O)[C@H](CCCNC(=N)N)NC(=O)CCCCCNC(=O)CCCC[C@@H]1SC[C@@H]2NC(=O)N[C@@H]21)C(N)=O	RP-HPLC, C18 column	–	water/acetonitrile gradient with TFA	–	6.9 min
CC(C)C[C@H](NC(=O)[C@@H]1CSCC(=O)N[C@H]2CCCCNC(=O)CSC[C@H](NC(=O)[C@H](CCCCN)NC2=O)C(=O)N[C@@H](CCCCN)C(=O)N[C@@H](CC(C)C)C(=O)N1)C(N)=O	analytical RP-HPLC	C18 column	10.00 min gradient, 0.05% TFA	–	2.44 min
CC(C)C[C@@H]1NC(=O)[C@H](CCCCN)NC(=O)[C@H](C(C)C)NC(=O)[C@@H]2CCCN2C(=O)[C@@H](Cc2ccc(O)cc2)NC(=O)[C@H](CC(C)C)NC(=O)[C@H](CCCCN)NC(=O)[C@H](C(C)C)NC(=O)[C@H](CCCCN)NC(=O)[C@H](CC(C)C)NC(=O)[C@@H]2CCCN2C(=O)[C@@H](Cc2ccc(O)cc2)NC(=O)[C@H](C(C)C)NC1=O	RP-HPLC C8	–	70 °C, water/acetonitrile TFA gradient	–	28.7 min
CC[C@@H](C)[C@@H](NC(=O)[C@@H](C)NC(=O)[C@@H](CCCCN)NC(=O)[C@@H](CC(C)C)NC(=O)[C@@H](C)NC(=O)[C@H](NC(=O)[C@@H](Cc1c[nH]cn1)NC(=O)[C@@H](CC(C)C)NC(=O)[C@H](NC(=O)[C@H](NC(=O)[C@@H](CCCCN)NC(=O)[C@H](NC(=O)[C@@H](C)NC(=O)[C@@H](CO)NC(=O)[C@@H](CCCCN)NC(=O)[C@@H](Cc1ccccc1)NC(=O)[C@H](NC(=O)[C@@H](CCCCN)NC(=O)[C@@H](CC(C)C)NC(=O)[C@@H](Cc1ccccc1)NC(=O)[C@@H](CO)NC(=O)[C@@H](CCCCN)NC(=O)[C@@H](Cc1c[nH]c2ccccc12)NC(=O)[C@@H](CCCCN)NC(C)=O)[C@H](C)O)C(C)C)[C@H](C)O)C(C)C)[C@H](C)O)C(=O)N[C@H](CO)C(=O)N[C@H](CO)C(N)=O	RP-HPLC C8	–	pH 2, hydrophobicity measure	–	102 min
CC(C)C[C@@H]1NC(=O)[C@H](CCCCN)NC(=O)[C@@H]2CCCN2C(=O)[C@@H](Cc2ccc(O)cc2)NC(=O)[C@H](CCCCN)NC(=O)[C@H](C(C)C)NC(=O)[C@H](CC(C)C)NC(=O)[C@H](CCCCN)NC(=O)[C@H](C(C)C)NC(=O)[C@@H]2CCCN2C(=O)[C@@H](Cc2ccc(O)cc2)NC(=O)[C@H](CC(C)C)NC(=O)[C@H](CCCCN)NC(=O)[C@H](C(C)C)NC(=O)[C@H](CCCCN)NC1=O	RP-HPLC C8	–	70 °C, water/acetonitrile TFA gradient	–	22.7 min
CCCCCCCCCCCCCC(=O)N[C@@H](CCCCN)C(=O)N[C@@H](CCCCN)C(=O)N[C@@H](CCCCN)C(=O)N[C@@H](CCCCN)C(=O)N[C@@H](CCCCN)C(N)=O	RP-HPLC C18	–	–	–	12.5 min
C[C@H](NC(=O)[C@H](CCC(N)=O)NC(=O)[C@H](Cc1c[nH]c2ccccc12)NC(=O)[C@@H](N)CCCNC(=N)N)C(=O)N[C@@H](CCCNC(=N)N)C(=O)N[C@@H](Cc1c[nH]c2ccccc12)C(=O)N[C@@H](CCC(N)=O)C(=O)N[C@@H](Cc1c[nH]c2ccccc12)C(=O)N[C@@H](CCCNC(=N)N)C(N)=O	RP-HPLC C18	–	hydrophobicity measure	–	5.6 min
CC(C)C[C@@H]1NC(=O)[C@H](CCCCN)NC(=O)[C@H](C(C)C)NC(=O)[C@@H]2CCCN2C(=O)[C@@H](Cc2ccc(O)cc2)NC(=O)[C@H](CC(C)C)NC(=O)[C@H](CCCCN)NC(=O)[C@H](C(C)C)NC(=O)[C@@H]2CCCN2C(=O)[C@@H](Cc2ccc(O)cc2)NC1=O	RP-HPLC C8	–	70 °C, water/acetonitrile TFA gradient	–	30.3 min
